{"data": "Results pooled from the literature", "note": "Protocols differ between the studies behind these lines. ± gives the spread as reported.", "UniProt O75676, sequence (whole entry, looked up)": "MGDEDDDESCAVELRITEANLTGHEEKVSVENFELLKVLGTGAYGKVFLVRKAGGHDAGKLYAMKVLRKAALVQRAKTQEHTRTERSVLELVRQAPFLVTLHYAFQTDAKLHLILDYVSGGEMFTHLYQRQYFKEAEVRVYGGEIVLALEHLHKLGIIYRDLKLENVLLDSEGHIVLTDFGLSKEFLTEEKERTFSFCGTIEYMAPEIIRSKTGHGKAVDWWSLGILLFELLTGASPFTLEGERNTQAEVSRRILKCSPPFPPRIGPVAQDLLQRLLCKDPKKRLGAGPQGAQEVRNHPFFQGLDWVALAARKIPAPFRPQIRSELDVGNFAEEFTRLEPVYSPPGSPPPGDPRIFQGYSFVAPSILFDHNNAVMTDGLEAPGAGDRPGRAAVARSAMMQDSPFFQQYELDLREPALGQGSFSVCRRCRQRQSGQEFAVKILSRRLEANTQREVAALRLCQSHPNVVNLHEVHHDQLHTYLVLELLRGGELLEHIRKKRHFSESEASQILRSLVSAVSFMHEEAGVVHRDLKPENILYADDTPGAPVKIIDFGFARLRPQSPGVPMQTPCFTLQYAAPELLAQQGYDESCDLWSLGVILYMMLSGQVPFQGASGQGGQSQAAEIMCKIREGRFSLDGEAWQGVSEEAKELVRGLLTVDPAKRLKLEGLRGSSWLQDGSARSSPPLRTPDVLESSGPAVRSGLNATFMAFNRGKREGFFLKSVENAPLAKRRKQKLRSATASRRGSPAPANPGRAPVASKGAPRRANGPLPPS", "UniProt P07948, sequence (whole entry, looked up)": "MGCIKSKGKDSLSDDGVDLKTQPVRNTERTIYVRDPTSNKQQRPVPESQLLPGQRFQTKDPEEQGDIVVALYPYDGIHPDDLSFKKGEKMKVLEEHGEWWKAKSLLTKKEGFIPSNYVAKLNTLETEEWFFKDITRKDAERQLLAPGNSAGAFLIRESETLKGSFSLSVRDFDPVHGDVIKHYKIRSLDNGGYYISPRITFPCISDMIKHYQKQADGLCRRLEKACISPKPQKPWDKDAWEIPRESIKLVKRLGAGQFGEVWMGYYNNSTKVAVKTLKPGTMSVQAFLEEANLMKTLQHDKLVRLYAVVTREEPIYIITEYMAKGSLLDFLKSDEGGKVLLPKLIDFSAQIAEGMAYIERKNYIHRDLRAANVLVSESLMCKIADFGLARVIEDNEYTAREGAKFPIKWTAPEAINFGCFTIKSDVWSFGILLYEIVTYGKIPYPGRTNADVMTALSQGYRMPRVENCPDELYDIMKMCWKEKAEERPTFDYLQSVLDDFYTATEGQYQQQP", "UniProt P07332, sequence (whole entry, looked up)": "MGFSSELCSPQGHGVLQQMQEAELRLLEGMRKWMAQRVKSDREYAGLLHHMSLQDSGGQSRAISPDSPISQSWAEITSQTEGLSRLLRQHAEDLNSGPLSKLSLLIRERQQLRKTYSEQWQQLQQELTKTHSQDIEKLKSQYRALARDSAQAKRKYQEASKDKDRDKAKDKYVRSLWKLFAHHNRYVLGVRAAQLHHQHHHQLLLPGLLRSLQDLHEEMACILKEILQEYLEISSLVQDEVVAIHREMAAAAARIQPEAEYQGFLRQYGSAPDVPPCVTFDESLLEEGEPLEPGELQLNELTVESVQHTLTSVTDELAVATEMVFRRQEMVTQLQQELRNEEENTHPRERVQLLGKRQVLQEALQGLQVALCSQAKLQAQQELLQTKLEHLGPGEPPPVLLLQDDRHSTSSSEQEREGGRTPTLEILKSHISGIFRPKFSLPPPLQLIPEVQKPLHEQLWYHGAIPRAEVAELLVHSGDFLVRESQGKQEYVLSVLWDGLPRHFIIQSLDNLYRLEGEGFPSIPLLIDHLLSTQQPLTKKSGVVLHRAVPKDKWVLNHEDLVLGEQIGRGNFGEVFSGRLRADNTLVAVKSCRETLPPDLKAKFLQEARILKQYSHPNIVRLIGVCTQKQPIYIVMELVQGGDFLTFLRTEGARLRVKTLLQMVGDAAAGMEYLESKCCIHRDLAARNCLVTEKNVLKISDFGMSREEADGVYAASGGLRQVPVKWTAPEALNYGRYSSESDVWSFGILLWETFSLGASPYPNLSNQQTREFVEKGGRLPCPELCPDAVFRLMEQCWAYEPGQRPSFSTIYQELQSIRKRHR"}
{"Structure (SMILES)": "CC(C)C[C@@H]1NC(=O)[C@@H](Cc2c[nH]c3ccccc23)NC(=O)[C@H](CCCNC(=N)N)NC(=O)[C@@H](CCC(=O)O)NC(=O)[C@H](CCC(N)=O)NC(=O)[C@@H](CCC(=O)O)NC(=O)[C@H](CCCNC(=N)N)NC(=O)[C@@H](Cc2c[nH]c3ccccc23)NC1=O", "assay": "Luminex, item: IL1b", "test system": "LDLr-/- mice, Western diet, liver", "conditions": "dose not given, 4 weeks", "measurement": "cytokine level", "result": "430 ± 100 pg/g tissue"}
{"Structure (SMILES)": "Cc1cc(C(=O)Nc2nc3cccc(C)c3n2[C@H]2CCCCN(C(=O)/C=C/CN(C)C)C2)ccn1", "target or system": "Trypanosoma brucei", "assay": "propidium iodide flow cytometry", "test system": "bloodstream form", "conditions": "concentration not given, 24 h", "measurement": "cells in sub-G0 phase", "result": "3.56%"}
{"Structure (SMILES)": "CCN(Cc1ccccc1)C(=O)CCc1nc(CN2CCN(C(=O)Cc3ccc(OC)c(OC)c3)CC2)no1", "assay": "current clamp", "test system": "DRG neurons, naive rat", "conditions": "1 µM", "measurement": "rheobase", "result": "486 ± 80.3 pA"}
{"Structure (SMILES)": "CO[C@H]1CC=C2CCN3CCC4=C(CC(=O)CC4)[C@]23C1", "assay": "intermittent two-bottle choice", "test system": "Wistar rat, 20% ethanol drinking", "conditions": "subcutaneous, 10 mg/kg, 24 h", "how to read": "relative to: ethanol over total fluid intake", "measurement": "ethanol preference", "result": "46 ± 4%"}
{"Structure (SMILES)": "CC(C)(C)C(=O)OCOP(=O)(OCOC(=O)C(C)(C)C)C1CCCN(O)C1=O (stereo not drawn)", "target or system": "NCI-H226", "measurement": "CC50", "result": "> 100 µM"}
{"Structure (SMILES)": "C[C@H](NCc1ccc(-c2ccc(C(F)(F)F)cc2)cc1)C(N)=O", "assay": "passive avoidance retention", "test system": "APP/PS1 mice", "conditions": "oral, 1 mg/kg, 336 h, 2 weeks treatment", "measurement": "step-through latency", "result": "254 ± 66.5 s"}
{"Structure (SMILES)": "CN(C)[C@H]1C[C@@]23CC[C@@]4(O2)C(=CC[C@]2(C)[C@@H](c5ccc6ccncc6c5)CC[C@H]24)C=C3[C@@H](O)[C@@H]1O", "target or system": "Tyrosine-protein kinase Lyn (LYN, Homo sapiens, UniProt P07948)", "assay": "cell-free assay, inhibitor", "conditions": "0.1 µM", "measurement": "inhibition", "result": "-8.3%"}
{"Structure (SMILES)": "CC(C)C[C@H](NC(=O)[C@H](CCC(=O)O)NC(=O)[C@H](Cc1ccccc1)NC(=O)[C@@H]1CCCN1C(=O)CNC(=O)OCc1ccccc1)C(=O)N[C@@H](CCC(=O)O)C(=O)N[C@@H](CCCNC(=N)N)C(=O)N[C@@H](CCCNC(=N)N)C(=O)N[C@@H](Cc1ccccc1)C(=O)N[C@@H](CCCCN)C(=O)N[C@@H](CCC(N)=O)C(=O)N[C@@H](CCC(N)=O)C(=O)O", "test system": "mouse tumour model, tumour vessels", "conditions": "dose not given", "measurement": "ZO-1+ CD31+ endothelial cells", "result": "-22%"}
{"Structure (SMILES)": "O=C1NC2(CC2)COc2ncc(F)cc2[C@H]2COCCN2c2ccn3ncc1c3n2", "test system": "Sprague-Dawley rat, female, adrenals", "conditions": "oral, 2.5 mg/kg/day, 4 weeks dosing, end of recovery", "measurement": "organ-to-brain weight ratio", "result": "3.29 ± 0.3%"}
{"Structure (SMILES)": "NNC(=O)c1ccccc1", "assay": "hydrazine ligation kinetics, absorbance", "conditions": "concentration not given, 35 s, added: 2-formylphenylboronic acid", "measurement": "normalised absorbance", "result": 0.733}
{"Structure (SMILES)": "CC(C)[C@H]1NC(=O)C[C@H]2/C=C/CCSSC[C@@H](NC1=O)C(=O)N[C@H](Cc1cccc3ccccc13)C(=O)NCC(=O)O2", "target or system": "Ribosomal protein S6 kinase alpha-4 (RPS6KA4, Homo sapiens, UniProt O75676)", "assay": "enzyme activity, inhibitor", "conditions": "10 µM", "measurement": "inhibition", "result": "0.227%"}
{"Structure (SMILES)": "COc1ccccc1-c1n[nH]c2nc(N[C@H]3CC[C@H](NS(=O)(=O)CC(C)C)CC3)ncc12", "assay": "bead binding, competition bead pull-down, item: LINJ.29.0860", "test system": "Leishmania donovani extract", "conditions": "10 µM", "how to read": "relative to: vehicle", "measurement": "relative abundance", "result": 0.96}
{"Structure (SMILES)": "CC1(C)C(NC(=O)C(=NOC2(C(=O)O)CC2)c2csc(N)n2)C(=O)N1OS(=O)(=O)O (stereo not drawn)", "assay": "teratogenicity", "test system": "zebrafish embryo", "conditions": "microinjection, injected 6 hpf, scored 5 dpf", "measurement": "EC50", "result": "> 1.69 nmol/embryo"}
{"Structure (SMILES)": "CS(C)(=O)=Nc1ccc(-c2ccc(-c3nc4cc(O[C@@H]5CO[C@H]6[C@@H]5OC[C@H]6O)[nH]c4cc3F)cc2)cc1", "target or system": "Tyrosine-protein kinase Fes/Fps (FES, Homo sapiens, UniProt P07332)", "assay": "enzyme activity, inhibitor", "conditions": "10 µM", "measurement": "inhibition", "result": "-26%"}
{"Structure (SMILES)": "CC(C)C[C@H](NC(=O)CNC(=O)[C@H](CCCCN)NC(=O)[C@@H](N)CC(C)C)C(=O)N[C@@H](C)C(=O)N[C@@H](C)C(=O)N[C@@H](CCCCN)C(=O)N[C@@H](CC(C)C)C(=O)N[C@@H](CC(C)C)C(=O)NCC(=O)N[C@@H](CC(C)C)C(=O)N[C@@H](CCCCN)C(=O)N[C@@H](CCCCN)C(=O)O", "assay": "absorbance at 734 nm", "conditions": "1 mg/mL, 5 min, room temperature", "measurement": "ABTS radical scavenging", "result": "0.176 fraction (0-1)"}
{"Structure (SMILES)": "COc1ccccc1-c1n[nH]c2nc(NC3CCN(C(=O)Cc4ccc(F)cc4F)CC3)ncc12", "assay": "bead binding, competition bead pull-down, item: LINJ.03.0360", "test system": "Leishmania donovani axenic amastigote extract", "conditions": "10 µM", "how to read": "relative to: vehicle", "measurement": "relative abundance", "result": 0.81}
{"Structure (SMILES)": "CCc1nnc(-c2c(OC)cc(-c3cnc4cc(-c5cnn(C)c5)ccn34)cc2OC)o1", "assay": "histomorphometry", "test system": "male C57BL/6J mouse, tibia", "conditions": "oral gavage, 40 mg/kg once daily, 3 wk", "measurement": "mineral apposition rate", "result": "0.924 ± 0.046 µm/day"}
{"Structure (SMILES)": "CCCC[C@@H]1NC(=O)[C@H](Cc2ccc(O)cc2)NC(=O)[C@@H]2CCCN2C(=O)[C@H](CC(=O)O)NC(=O)[C@H](C)NC(=O)[C@H](Cc2ccccc2)NC(=O)[C@@H]2CSCCC(=O)N3CN(CN(C3)C(=O)CCSC[C@@H](C(=O)N[C@@H](C)C(N)=O)NC1=O)C(=O)CCSC[C@H](NC(C)=O)C(=O)N[C@@H](CC(C)(C)C)C(=O)N1CCC[C@H]1C(=O)N[C@@H](CCC(=O)O)C(=O)N[C@H](CCCCNC(=O)CCc1cn(CCOCCOCCOCCN(CCOCCOCCOCCC(=O)N[C@H]3CSCCC(=O)N4CN5CN(C4)C(=O)CCSC[C@H](NC(=O)[C@@H](CC(=O)O)NC(=O)[C@H](Cc4cccc6ccccc46)NC(=O)[C@@H]4CCCN4C3=O)C(=O)N[C@@H](CCSC)C(=O)N[C@@H](CCCCNC(=N)N)C(=O)N[C@@H](CC(=O)O)C(=O)N[C@@H](Cc3c[nH]c4ccccc34)C(=O)N[C@@H](CO)C(=O)N[C@@H]([C@@H](C)O)C(=O)N3CCC[C@H]3C(=O)N3C[C@H](O)C[C@H]3C(=O)N[C@@H](Cc3c[nH]c4ccccc34)C(=O)N[C@H](C(N)=O)CSCCC5=O)CCOCCOCCOCCn3cc(CCC(=O)NCCCC[C@H]4NC(=O)[C@H](CCC(=O)O)NC(=O)[C@@H]5CCCN5C(=O)[C@H](CC(C)(C)C)NC(=O)[C@@H](NC(C)=O)CSCCC(=O)N5CN6CN(C5)C(=O)CCSC[C@H](NC(=O)[C@H](Cc5ccc(O)cc5)NC(=O)[C@@H]5CCCN5C4=O)C(=O)N[C@@H](Cc4ccccc4)C(=O)N[C@@H](C)C(=O)N[C@@H](CC(=O)O)C(=O)N4CCC[C@H]4C(=O)N[C@@H](Cc4ccc(O)cc4)C(=O)N[C@@H](CCCC)C(=O)N[C@H](C(=O)N[C@@H](C)C(N)=O)CSCCC6=O)nn3)nn1)C(=O)N1CCC[C@H]1C(=O)N[C@@H](Cc1ccc(O)cc1)C(=O)N2", "assay": "NanoString, item: Il12a-mRNA", "test system": "mouse bearing MC38-Nectin-4 tumour, circulating white blood cells", "conditions": "5 mg/kg, 24 h after dosing, unit not given", "how to read": "relative to: vehicle", "measurement": "mRNA level", "result": 1.84}
{"note": "Repeated from above:"}
{"Structure (SMILES)": "CO[C@H]1CC=C2CCN3CCC4=C(CC(=O)CC4)[C@]23C1", "assay": "intermittent two-bottle choice", "test system": "Wistar rat, 20% ethanol drinking", "conditions": "subcutaneous, 10 mg/kg, 24 h", "how to read": "relative to: ethanol over total fluid intake", "measurement": "ethanol preference", "result": "46 ± 4%"}
{"Structure (SMILES)": "COc1ccccc1-c1n[nH]c2nc(NC3CCN(C(=O)Cc4ccc(F)cc4F)CC3)ncc12", "assay": "bead binding, competition bead pull-down, item: LINJ.03.0360", "test system": "Leishmania donovani axenic amastigote extract", "conditions": "10 µM", "how to read": "relative to: vehicle", "measurement": "relative abundance", "result": 0.81}
